Experimental data pooled from the literature.
Protocols differ between the studies behind these lines.
Organism: Staphylococcus aureus

With `CN(C)c1cc(CNC(=O)OCC(C)(C)C)c(O)c2c1C[C@H]1C[C@H]3[C@H](N(C)C)C(O)=C(C(N)=O)C(=O)[C@@]3(O)C(O)=C1C2=O` the MIC was 2 µg/mL (microbial growth, broth dilution).
The MIC of `CC[P+](CC)(CC)[Au-][S][C@@H]1O[C@H](COC(C)=O)[C@@H](O[C@H]2O[C@H](COC(C)=O)[C@@H](OC(C)=O)[C@H](OC(C)=O)[C@H]2OC(C)=O)[C@H](OC(C)=O)[C@H]1OC(C)=O` is reported as 0.008 µM (broth microdilution; JE2 (USA300)).
The MIC of `CCN(CC)CCCN1/C(=C/c2cc(C)[n+](C)c3ccccc23)Sc2ccccc21` is reported as 2 µg/mL (broth microdilution; ATCC 29213).
For `N=C(N)NCCC[C@@H]1NC(=O)[C@H](CCCNC(=N)N)NC(=O)[C@H](CCCNC(=N)N)NC(=O)[C@H](Cc2c[nH]c3ccccc23)NC(=O)[C@H](Cc2c[nH]c3ccccc23)NC(=O)[C@H](Cc2c[nH]c3ccccc23)NC(=O)[C@H](Cc2c[nH]c3ccccc23)NC(=O)[C@H](CCCNC(=N)N)NC1=O`, the MIC was 4 µg/mL (broth microdilution; MRSA ATCC 43300).
The MIC of `CCN(CC)c1ccc(C=NNC(=O)c2ccccn2)c(O)c1` is reported as 8 µg/mL (broth microdilution; ATCC 29213; 16 to 24 h).
`CC(=O)NCc1cc(N(C)C)c2c(c1O)C(=O)C1=C(O)[C@]3(O)C(=O)C(C(N)=O)=C(O)[C@@H](N(C)C)[C@@H]3C[C@@H]1C2` gave an MIC of greater than 64 µg/mL (RN4250, Tet K efflux).
`CO[C@H]1[C@H](O)[C@@H](N)[C@@H](O[C@H]2[C@H](O[C@@H]3O[C@H](CO)[C@@H](O[C@H]4O[C@@H](CN)[C@@H](O)[C@H](O)[C@H]4N)[C@H]3O)[C@@H](O)[C@H](N)C[C@@H]2N)O[C@@H]1CO` has an MIC of 32 µg/mL (broth microdilution; MRSA isolate AG 045).
`CCCCCCCCCc1nc2ccccc2c(=O)n1N` gave an MIC of greater than 100 µM (broth microdilution; RN6390B).
The MIC of `CC(C)C1=CC2=CCC3C(C)(C(=O)OCCC[N+](C)(C)C)CCCC3(C)C2CC1` (stereo not drawn) is reported as 7.8 µg/mL (microbial growth, broth dilution; ATCC29213; 16 h).
For `CC(=O)c1ccc2c(c1)sc1nc(=O)c(C#N)cn12`, the MIC was less than 54 µg/mL (microbial growth, broth dilution).
The MIC of `CC(C)C[C@H](NC(=O)[C@H](CC(C)C)NC(=O)[C@H](CCCCN)NC(=O)[C@H](CC(C)C)NC(=O)[C@H](CC(C)C)NC(=O)[C@H](CCCCN)NC(=O)[C@H](CCCCN)NC(=O)[C@H](CC(C)C)NC(=O)[C@H](CC(C)C)NC(=O)[C@H](CCCCN)NC(=O)[C@H](CCCCN)NC(=O)[C@H](CC(C)C)NC(=O)[C@H](CC(C)C)NC(=O)[C@H](CCCCN)NC(=O)[C@@H](N)CC(C)C)C(N)=O` is reported as 1.9 µM (MSSA RN 4220, RPMI medium; 24 h, 37 °C).
`CN(C)c1cc(CN2CCCC2)c(O)c2c1C[C@H]1C[C@H]3[C@H](N(C)C)C(O)=C(C(N)=O)C(=O)[C@@]3(O)C(O)=C1C2=O` has an MIC of 2 µg/mL (RN4250, Tet K efflux).
The MIC of `CNC(CC(C)C)C(=O)NC1C(=O)NC(CC(N)=O)C(=O)NC2C(=O)NC3C(=O)NC(C(=O)NC(C(=O)O)c4cc(O)cc(O)c4-c4cc3ccc4O)C(O)c3ccc(c(Cl)c3)Oc3cc2cc(c3OC2OC(CO)C(O)C(O)C2OC2CC(C)(NC(=O)CCCCCCCC[N+]3(C)CCOCC3)C(O)C(C)O2)Oc2ccc(cc2Cl)C1O` (stereo not drawn) is reported as 32 µg/mL (agar dilution; MRSA clinical isolate MRSA4).
`CN(C)c1cc(CN2CCCCC2)c(O)c2c1C[C@H]1C[C@H]3[C@H](N(C)C)C(O)=C(C(N)=O)C(=O)[C@@]3(O)C(O)=C1C2=O` has an MIC of 1 µg/mL (MRSA 5, Tet M, 50% human serum).
The MIC of `CC(C)C[C@H](NC(=O)[C@H](CC(C)C)NC(=O)[C@H](CCCCN)NC(=O)[C@@H]1CCCN1C(=O)[C@H](CC(C)C)NC(=O)[C@H](CC(C)C)NC(=O)[C@H](CCCCN)NC(=O)[C@H](CC(C)C)NC(=O)[C@H](CC(C)C)NC(=O)[C@H](CO)NC(=O)CNC(=O)[C@H](Cc1ccccc1)NC(=O)[C@@H](N)Cc1ccccc1)C(N)=O` is reported as 0.78 to 1.56 µM (broth microdilution; USA300 MRSA).

Repeated from above:
The MIC of `CC(C)C[C@H](NC(=O)[C@H](CC(C)C)NC(=O)[C@H](CCCCN)NC(=O)[C@H](CC(C)C)NC(=O)[C@H](CC(C)C)NC(=O)[C@H](CCCCN)NC(=O)[C@H](CCCCN)NC(=O)[C@H](CC(C)C)NC(=O)[C@H](CC(C)C)NC(=O)[C@H](CCCCN)NC(=O)[C@H](CCCCN)NC(=O)[C@H](CC(C)C)NC(=O)[C@H](CC(C)C)NC(=O)[C@H](CCCCN)NC(=O)[C@@H](N)CC(C)C)C(N)=O` is reported as 1.9 µM (MSSA RN 4220, RPMI medium; 24 h, 37 °C).
